# Measured values from different studies.
# Compare with care: the assays were run in different laboratories. “And” joins repeats or separate records; there may be more than shown. Numbers after ± are the reported error.
Compound,assay,system,conditions,half-life
O=C(/C=C/c1ccc(O)c2c1[C@H](C(=O)O)[C@@H](c1ccc(O)c(O)c1)O2)O[C@H](Cc1ccc(O)c(O)c1)C(=O)O,UPLC-MS/MS,"Wistar rat, microcirculation dysfunction model, plasma","oral, 100 mg/kg Salvia miltiorrhiza stem-leaf extract FS",3.3 ± 3.49 h
CCN1CCN(c2ccc(Nc3cc(N(C)C(=O)Nc4c(Cl)c(OC)cc(OC)c4Cl)ncn3)cc2)CC1,LC-MS/MS,"juvenile female Crl:WI(Han) rats, plasma","oral gavage, 0.1 mg/kg/day, postnatal day 17",4.96 h
CC(C)=CCC[C@](C)(O[C@@H]1O[C@H](CO)[C@@H](O)[C@H](O)[C@H]1O)[C@H]1CC[C@]2(C)[C@@H]1[C@H](O)C[C@@H]1[C@@]3(C)CC[C@H](O[C@@H]4O[C@H](CO)[C@@H](O)[C@H](O)[C@H]4O[C@@H]4O[C@H](CO)[C@@H](O)[C@H](O)[C@H]4O)C(C)(C)[C@@H]3CC[C@]12C,,"Sprague Dawley rat, male, plasma","oral, 42 mg/kg, red ginseng extract",32.5 ± 6.2 h
Cc1nc2cccc(OCC(C)(C)C(=O)NC(C)C)c2c(N)c1C(=O)O,,"male Sprague-Dawley rat, plasma","oral gavage, 100 mg/kg, day 1",0.71 h
O=C(/C=C/c1ccc(O)c(O)c1/C=C/c1ccc(O)c(O)c1)O[C@H](Cc1ccc(O)c(O)c1)C(=O)O,UPLC-MS/MS,"Wistar rat, microcirculation dysfunction model, plasma","oral, 100 mg/kg Salvia miltiorrhiza stem-leaf extract FS",18.7 ± 22.2 h
CCc1oc2ccc(OC)cc2c1C(=O)c1cc(Br)c(O)c(Br)c1,,"Sprague-Dawley rats, male, whole blood","intravenous, 0.5 mg/kg",1.3 ± 0.1 h
CCC[C@@]1(CCc2ccccc2)CC(O)=C([C@H](CC)c2cccc(NS(=O)(=O)c3ccc(C(F)(F)F)cn3)c2)C(=O)O1,,"Sprague Dawley rat, male, plasma","oral, 5 mg/kg, lipid-free formulation",3.57 ± 0.73 h
Cc1nc(Nc2ncc(C(=O)Nc3c(C)cccc3Cl)s2)cc(N2CCN(CCO)CC2)n1,,"Sprague-Dawley rat, female, plasma","intraperitoneal, 5 mg/kg, added: rosiglitazone co-dosed",4.38 ± 1.22 h
CC(C)=CCC[C@](C)(O[C@@H]1O[C@H](CO[C@@H]2O[C@H](CO)[C@@H](O)[C@H](O)[C@H]2O)[C@@H](O)[C@H](O)[C@H]1O)[C@H]1CC[C@]2(C)[C@@H]1[C@H](O)C[C@@H]1[C@@]3(C)CC[C@H](O[C@@H]4O[C@H](CO)[C@@H](O)[C@H](O)[C@H]4O[C@@H]4O[C@H](CO)[C@@H](O)[C@H](O)[C@H]4O)C(C)(C)[C@@H]3CC[C@]12C,,"Sprague Dawley rat, male, plasma","oral, 86 mg/kg, white ginseng extract",18.5 ± 3.8 h
CC(C)=CCC[C@](C)(O[C@@H]1O[C@H](CO)[C@@H](O)[C@H](O)[C@H]1O)[C@H]1CC[C@]2(C)[C@@H]1[C@H](O)C[C@@H]1[C@@]3(C)CC[C@H](O[C@@H]4O[C@H](CO)[C@@H](O)[C@H](O)[C@H]4O)C(C)(C)[C@@H]3CC[C@]12C,,"Sprague-Dawley rat, plasma","oral, 100 mg/kg of parent ginsenoside, control group, no prebiotic",3.06 ± 0.29 h
Cn1nnc2c(C(N)=O)ncn2c1=O,,"athymic rat, male, intracranial U87 glioma, tumour extracellular fluid, microdialysate","oral, 50 mg/kg, before cediranib",1.9 h and 1.4 h and 1.6 h and 1.8 h
CCCC[C@H](NC(C)=O)C(=O)N[C@H]1CCC(=O)NC[C@@H](C(=O)N[C@@H](Cc2c[nH]c3ccccc23)C(N)=O)NC(=O)[C@H](CCCNC(=N)N)NC(=O)[C@@H](Cc2ccccc2)NC(=O)[C@H](Cc2c[nH]cn2)NC1=O,,"CD Sprague Dawley rat, female, plasma","subcutaneous, 5.0 mg/kg daily, day 1",5.91 h

# Some of these lines once more:
Compound,assay,system,conditions,half-life
Cn1nnc2c(C(N)=O)ncn2c1=O,,"athymic rat, male, intracranial U87 glioma, tumour extracellular fluid, microdialysate","oral, 50 mg/kg, before cediranib",1.9 h and 1.4 h and 1.6 h and 1.8 h
CCCC[C@H](NC(C)=O)C(=O)N[C@H]1CCC(=O)NC[C@@H](C(=O)N[C@@H](Cc2c[nH]c3ccccc23)C(N)=O)NC(=O)[C@H](CCCNC(=N)N)NC(=O)[C@@H](Cc2ccccc2)NC(=O)[C@H](Cc2c[nH]cn2)NC1=O,,"CD Sprague Dawley rat, female, plasma","subcutaneous, 5.0 mg/kg daily, day 1",5.91 h
